Experimental data from different studies.
Each line is one published result; not all experiments were run side by side.
C3AR1: C3a anaphylatoxin chemotactic receptor (C3AR1, Homo sapiens, UniProt Q16581)
UniProt Q16581, sequence (whole entry, looked up): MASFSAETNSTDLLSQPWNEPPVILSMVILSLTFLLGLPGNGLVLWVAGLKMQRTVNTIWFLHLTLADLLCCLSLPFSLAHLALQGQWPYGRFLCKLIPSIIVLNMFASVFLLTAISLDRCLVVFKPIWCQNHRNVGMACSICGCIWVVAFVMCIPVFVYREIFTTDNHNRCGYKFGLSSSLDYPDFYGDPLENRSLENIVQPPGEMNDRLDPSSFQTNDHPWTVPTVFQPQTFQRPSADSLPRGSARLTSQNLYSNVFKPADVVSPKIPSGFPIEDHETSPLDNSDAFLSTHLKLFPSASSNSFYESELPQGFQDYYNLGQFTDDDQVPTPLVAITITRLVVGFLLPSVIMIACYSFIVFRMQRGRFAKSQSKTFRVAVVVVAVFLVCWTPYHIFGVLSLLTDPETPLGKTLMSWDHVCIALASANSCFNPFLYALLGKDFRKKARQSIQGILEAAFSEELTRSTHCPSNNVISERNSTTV
ADORA1: Adenosine receptor A1 (ADORA1, Homo sapiens, UniProt P30542)
UniProt P30542, sequence (whole entry, looked up): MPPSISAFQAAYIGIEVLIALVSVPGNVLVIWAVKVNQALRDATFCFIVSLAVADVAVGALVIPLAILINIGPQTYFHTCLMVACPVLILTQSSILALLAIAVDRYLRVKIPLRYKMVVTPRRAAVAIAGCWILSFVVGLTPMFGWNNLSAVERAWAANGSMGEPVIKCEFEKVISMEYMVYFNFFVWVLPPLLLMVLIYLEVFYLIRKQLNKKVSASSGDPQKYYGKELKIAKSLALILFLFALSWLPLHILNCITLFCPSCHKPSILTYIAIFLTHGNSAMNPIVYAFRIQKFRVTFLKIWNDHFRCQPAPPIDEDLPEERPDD
ESR1: Estrogen receptor (ESR1, Homo sapiens, UniProt P03372)
UniProt P03372, sequence (whole entry, looked up): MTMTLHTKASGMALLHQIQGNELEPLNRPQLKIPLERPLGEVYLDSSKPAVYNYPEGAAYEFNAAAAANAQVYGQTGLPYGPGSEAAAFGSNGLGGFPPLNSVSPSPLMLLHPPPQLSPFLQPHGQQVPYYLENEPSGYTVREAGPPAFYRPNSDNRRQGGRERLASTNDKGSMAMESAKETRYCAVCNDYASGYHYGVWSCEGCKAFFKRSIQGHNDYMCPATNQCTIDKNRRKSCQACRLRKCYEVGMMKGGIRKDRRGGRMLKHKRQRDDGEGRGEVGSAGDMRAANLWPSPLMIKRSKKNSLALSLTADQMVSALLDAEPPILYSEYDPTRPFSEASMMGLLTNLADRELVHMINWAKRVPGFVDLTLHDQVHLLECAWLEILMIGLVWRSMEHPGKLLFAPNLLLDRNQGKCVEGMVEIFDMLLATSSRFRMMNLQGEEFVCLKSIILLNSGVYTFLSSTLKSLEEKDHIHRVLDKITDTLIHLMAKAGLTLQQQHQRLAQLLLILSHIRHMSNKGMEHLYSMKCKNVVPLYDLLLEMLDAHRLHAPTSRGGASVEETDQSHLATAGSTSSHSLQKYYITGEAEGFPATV
MTNR1A: Melatonin receptor type 1A (MTNR1A, Homo sapiens, UniProt P48039)
UniProt P48039, sequence (whole entry, looked up): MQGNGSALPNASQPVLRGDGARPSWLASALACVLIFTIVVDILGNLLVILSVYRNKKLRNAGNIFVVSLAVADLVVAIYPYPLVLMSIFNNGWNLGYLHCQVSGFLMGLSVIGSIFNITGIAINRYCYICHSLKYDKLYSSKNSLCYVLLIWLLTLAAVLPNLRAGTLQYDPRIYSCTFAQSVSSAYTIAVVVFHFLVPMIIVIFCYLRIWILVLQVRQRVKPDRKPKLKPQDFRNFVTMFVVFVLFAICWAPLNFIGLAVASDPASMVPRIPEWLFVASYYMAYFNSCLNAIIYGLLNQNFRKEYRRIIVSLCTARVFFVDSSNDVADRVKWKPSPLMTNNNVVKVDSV
UniProt P49685, sequence (whole entry, looked up): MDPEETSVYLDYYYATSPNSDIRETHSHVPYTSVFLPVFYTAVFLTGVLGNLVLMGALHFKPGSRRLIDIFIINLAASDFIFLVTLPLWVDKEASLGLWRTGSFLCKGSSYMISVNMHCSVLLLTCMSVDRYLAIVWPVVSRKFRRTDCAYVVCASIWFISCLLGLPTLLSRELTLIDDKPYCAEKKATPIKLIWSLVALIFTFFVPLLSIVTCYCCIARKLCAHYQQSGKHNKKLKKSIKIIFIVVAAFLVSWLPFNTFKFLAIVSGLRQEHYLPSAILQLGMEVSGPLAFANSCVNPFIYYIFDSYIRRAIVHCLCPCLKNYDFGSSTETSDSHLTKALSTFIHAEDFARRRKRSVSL
UniProt Q92731, sequence (whole entry, looked up): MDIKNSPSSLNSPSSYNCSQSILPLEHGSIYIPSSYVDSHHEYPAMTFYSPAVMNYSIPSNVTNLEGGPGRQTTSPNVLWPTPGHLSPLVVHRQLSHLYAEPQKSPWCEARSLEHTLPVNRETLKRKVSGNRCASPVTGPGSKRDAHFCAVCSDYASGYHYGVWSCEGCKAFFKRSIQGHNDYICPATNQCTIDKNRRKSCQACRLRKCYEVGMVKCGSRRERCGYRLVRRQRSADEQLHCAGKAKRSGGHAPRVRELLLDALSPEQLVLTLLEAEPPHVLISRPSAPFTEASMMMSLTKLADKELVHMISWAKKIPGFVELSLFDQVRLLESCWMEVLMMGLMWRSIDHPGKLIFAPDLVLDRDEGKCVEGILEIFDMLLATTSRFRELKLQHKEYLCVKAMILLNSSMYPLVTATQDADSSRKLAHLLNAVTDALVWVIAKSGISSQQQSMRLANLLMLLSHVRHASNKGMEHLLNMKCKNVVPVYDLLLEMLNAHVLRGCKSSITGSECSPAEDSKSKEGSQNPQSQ
UniProt Q16602, sequence (whole entry, looked up): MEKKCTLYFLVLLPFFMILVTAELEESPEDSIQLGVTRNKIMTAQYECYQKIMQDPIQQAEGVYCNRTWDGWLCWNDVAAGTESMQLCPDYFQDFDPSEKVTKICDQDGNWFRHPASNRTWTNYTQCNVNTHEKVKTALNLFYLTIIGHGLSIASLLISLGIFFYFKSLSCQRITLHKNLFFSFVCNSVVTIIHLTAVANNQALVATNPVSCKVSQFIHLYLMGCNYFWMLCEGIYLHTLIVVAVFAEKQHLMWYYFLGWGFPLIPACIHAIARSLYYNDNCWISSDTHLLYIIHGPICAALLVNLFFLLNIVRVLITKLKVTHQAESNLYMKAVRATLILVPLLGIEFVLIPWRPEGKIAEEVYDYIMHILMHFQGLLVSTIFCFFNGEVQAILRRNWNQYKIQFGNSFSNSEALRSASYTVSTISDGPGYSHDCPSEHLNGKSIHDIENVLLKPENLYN
UniProt P14867, sequence (whole entry, looked up): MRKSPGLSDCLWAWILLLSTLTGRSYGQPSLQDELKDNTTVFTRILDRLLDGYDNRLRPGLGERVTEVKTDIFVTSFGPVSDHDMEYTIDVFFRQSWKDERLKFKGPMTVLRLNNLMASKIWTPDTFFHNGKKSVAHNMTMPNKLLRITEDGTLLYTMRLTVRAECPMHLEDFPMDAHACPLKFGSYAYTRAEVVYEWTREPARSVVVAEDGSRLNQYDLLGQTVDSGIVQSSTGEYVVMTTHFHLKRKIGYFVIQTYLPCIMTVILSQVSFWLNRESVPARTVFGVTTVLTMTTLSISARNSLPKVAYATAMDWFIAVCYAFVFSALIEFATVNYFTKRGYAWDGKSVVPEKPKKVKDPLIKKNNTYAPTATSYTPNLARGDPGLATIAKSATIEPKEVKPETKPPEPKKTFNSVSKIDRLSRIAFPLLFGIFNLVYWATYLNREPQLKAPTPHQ
UniProt P08912, sequence (whole entry, looked up): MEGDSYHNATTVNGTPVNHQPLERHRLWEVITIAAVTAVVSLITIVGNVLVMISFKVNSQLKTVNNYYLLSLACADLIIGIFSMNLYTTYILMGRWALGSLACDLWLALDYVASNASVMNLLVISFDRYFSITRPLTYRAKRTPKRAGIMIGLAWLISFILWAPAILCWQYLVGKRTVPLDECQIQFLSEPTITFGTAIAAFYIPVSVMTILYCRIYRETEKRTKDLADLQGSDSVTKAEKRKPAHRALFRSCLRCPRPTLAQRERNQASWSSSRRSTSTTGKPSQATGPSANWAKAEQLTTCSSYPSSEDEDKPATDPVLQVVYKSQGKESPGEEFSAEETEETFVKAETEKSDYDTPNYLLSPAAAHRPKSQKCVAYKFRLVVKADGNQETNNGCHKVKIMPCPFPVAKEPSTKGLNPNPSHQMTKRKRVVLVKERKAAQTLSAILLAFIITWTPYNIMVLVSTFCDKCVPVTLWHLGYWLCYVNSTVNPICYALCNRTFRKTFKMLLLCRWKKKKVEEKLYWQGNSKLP
UniProt O60894, sequence (whole entry, looked up): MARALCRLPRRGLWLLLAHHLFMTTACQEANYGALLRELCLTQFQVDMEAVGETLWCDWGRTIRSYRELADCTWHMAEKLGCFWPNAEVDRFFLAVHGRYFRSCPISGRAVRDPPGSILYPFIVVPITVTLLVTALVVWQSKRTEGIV
UniProt Q01726, sequence (whole entry, unmodified, looked up): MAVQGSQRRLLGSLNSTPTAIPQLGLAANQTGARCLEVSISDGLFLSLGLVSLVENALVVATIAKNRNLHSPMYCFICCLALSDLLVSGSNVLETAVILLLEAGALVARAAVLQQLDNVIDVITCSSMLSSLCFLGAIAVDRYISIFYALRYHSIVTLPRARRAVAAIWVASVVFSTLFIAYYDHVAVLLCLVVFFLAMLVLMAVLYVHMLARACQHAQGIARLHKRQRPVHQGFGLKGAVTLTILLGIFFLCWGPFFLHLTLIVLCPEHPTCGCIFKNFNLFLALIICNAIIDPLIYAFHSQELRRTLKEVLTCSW
UniProt P41968, sequence (whole entry, looked up): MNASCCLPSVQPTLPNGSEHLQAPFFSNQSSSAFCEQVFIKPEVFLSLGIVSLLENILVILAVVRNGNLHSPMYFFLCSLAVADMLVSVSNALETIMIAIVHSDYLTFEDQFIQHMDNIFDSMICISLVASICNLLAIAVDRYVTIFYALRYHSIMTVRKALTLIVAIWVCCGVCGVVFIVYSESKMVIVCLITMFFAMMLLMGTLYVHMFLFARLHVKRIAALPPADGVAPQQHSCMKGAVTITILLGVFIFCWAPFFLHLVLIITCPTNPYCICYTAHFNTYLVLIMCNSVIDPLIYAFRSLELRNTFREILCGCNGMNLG

SMILES | target | assay | test system | conditions | EC50 [nM]
CC(C)C[C@H](NC(=O)[C@H](C)NC(=O)[C@H](CO)NC(=O)[C@@H]1CCCN1C(=O)[C@@H]1CCCN1C(=O)[C@H](CCC(N)=O)NC(=O)[C@H](CC(C)C)NC(=O)[C@@H](N)[C@@H](C)O)C(=O)N[C@@H](CCCNC(=N)N)C(=O)N[C@@H](CCCNC(=N)N)C(=O)N[C@@H](CCCNC(=N)N)C(=O)N[C@@H](Cc1c[nH]cn1)C(=O)N[C@@H](Cc1ccc(O)cc1)C(=O)N[C@@H](Cc1c[nH]cn1)C(=O)N[C@@H](Cc1c[nH]cn1)C(=O)N[C@@H](C)C(=O)N[C@@H](CC(C)C)C(=O)N1CCC[C@H]1C(=O)N1CCC[C@H]1C(=O)N[C@@H](CO)C(=O)N[C@@H](CCCNC(=N)N)C(=O)O | C3AR1 | G protein activation, agonist, BRET |  |  | 416
C=CCc1cccc(-c2cc(/C=C/C(=O)O)ccc2O)c1 | RXRA (Homo sapiens, UniProt P19793) | coactivator recruitment, agonist, FP |  |  | 260
CCNC(=O)[C@H]1O[C@@H](n2cnc3c(NCCCCNS(=O)(=O)c4cccc5c(N(C)C)cccc45)ncnc32)[C@H](O)[C@@H]1O | ADORA1 | reporter gene, agonist |  |  | > 10000
N#CC(=CC(=O)c1ccccc1)c1ccc(O)cc1 | ESR1 | coactivator recruitment, agonist |  |  | 6740
CCN(C(=O)C1CCN(S(=O)(=O)c2ccc3[nH]ncc3c2)CC1)C1CCc2ccccc21 (racemic) | CHRM5 (Homo sapiens, UniProt P08912) | calcium mobilization, positive allosteric modulator | CHO expressing human M5 | with: acetylcholine EC20 | 1060
CSCC[C@H](NC(=O)[C@H](CC(C)C)NC(=O)[C@H](CCC(N)=O)NC(=O)[C@H](Cc1c[nH]c2ccccc12)NC(=O)[C@H](CC(C)C)NC(=O)[C@H](CCCCN)NC(=O)[C@H](Cc1c[nH]cn1)NC(=O)[C@H](CO)NC(=O)[C@H](CC(C)C)NC(=O)[C@H](CC(N)=O)NC(=O)[C@H](CCC(N)=O)NC(=O)[C@@H](NC(=O)[C@H](CCC(N)=O)NC(=O)[C@@H]1CSSC[C@H](NC(=O)CNC(=O)[C@@H](N)C(C)C)C(=O)N[C@@H](C(C)C)C(=O)N[C@@H](CC(C)C)C(=O)NCC(=O)N[C@@H]([C@@H](C)O)C(=O)N1)C(C)C)C(=O)NCC(=O)N1CCC[C@H]1C(=O)N[C@@H](C)C(=O)NCC(=O)N[C@@H](CCCNC(=N)N)C(=O)N[C@@H](CCC(N)=O)C(=O)N[C@@H](CC(=O)O)C(=O)N[C@@H](CO)C(=O)N[C@@H](C)C(=O)N1CCC[C@H]1C(=O)N[C@H](C(=O)N[C@@H](CC(=O)O)C(=O)N1CCC[C@H]1C(=O)N[C@@H](CO)C(=O)N[C@@H](CO)C(=O)N1CCC[C@H]1C(=O)N[C@@H](Cc1c[nH]cn1)C(=O)N[C@@H](CO)C(=O)N[C@@H](Cc1ccc(O)cc1)C(N)=O)C(C)C | Calcitonin-gene-related peptide receptor, CALCRL/RAMP1 (Homo sapiens, UniProt O60894+Q16602) | cAMP, agonist, CAMYEL BRET | COS-7 | 37 °C | 3.09
CCCn1c(=O)c2[nH]c(-c3ccc(OCC(=O)NCCNC(=O)CCCCCCCNS(=O)(=O)c4cccc5c(N(C)C)cccc45)cc3)nc2n(CCC)c1=O | ADORA1 | reporter gene, agonist |  |  | 30.2
CC(C)C[C@H](NC(=O)CNC(=O)[C@H](CC(C)C)NC(=O)[C@H](CCCCN)NC(=O)[C@H](CO)NC(=O)[C@H](C)NC(=O)[C@H](CCCN=C(N)N)NC(=O)[C@H](Cc1ccc(O)cc1)NC(=O)[C@H](CCCCN)NC(=O)[C@H](CCCCN)NC(=O)CNC(=O)[C@H](Cc1c[nH]c2ccccc12)NC(=O)[C@@H](N)Cc1c[nH]c2ccccc12)C(=O)N[C@@H](C)C(=O)N[C@@H](CCCN=C(N)N)C(=O)O | C3AR1 | β-arrestin2 recruitment, agonist, BRET |  | 60 min, 37 °C, with: GRK2 co-expression | 5.3
CC/C(=C(\c1ccccc1)c1ccc(OCCN(C)CCCCC(=O)NCCc2c[nH]c3ccc(OC)cc23)cc1)c1ccccc1 | MTNR1A | cAMP, agonist |  |  | 2510
COc1ccc(C(C)C)c(CNc2cccnc2)c1 | MTNR1A | cAMP, agonist, luciferase |  |  | > 31600
O=S(=O)(Oc1ccc(F)cc1)C1CC2OC1C(c1ccc(O)cc1)=C2c1ccc(O)cc1 (racemic) | ESR1 | reporter gene, agonist, luciferase |  |  | 200
N=C(N)NCCC[C@H](NC(=O)[C@H](CC(=O)O)NC(=O)[C@@H]1CSCCCC(=O)NCC(=O)N[C@@H](Cc2c[nH]cn2)C(=O)N[C@H](Cc2ccccc2)C(=O)N[C@@H](CCCNC(=N)N)C(=O)N[C@@H](Cc2c[nH]c3ccccc23)C(=O)N1)C(=O)N[C@@H](Cc1ccccc1)C(=O)NCC(N)=O | MC3R (Homo sapiens, UniProt P41968) | cAMP, agonist |  |  | 100
CC(C)C[C@H](NC(=O)CNC(=O)[C@H](CC(C)C)NC(=O)[C@H](CCCCN)NC(=O)[C@H](CO)NC(=O)[C@H](C)NC(=O)[C@H](CCCN=C(N)N)NC(=O)[C@H](Cc1ccc(O)cc1)NC(=O)[C@H](CCCCN)NC(=O)[C@H](CCCCN)NC(=O)CNC(=O)[C@H](Cc1c[nH]c2ccccc12)NC(=O)[C@@H](N)Cc1c[nH]c2ccccc12)C(=O)N[C@@H](C)C(=O)N[C@@H](CCCN=C(N)N)C(=O)O | C3AR1 | β-arrestin recruitment, agonist, luciferase |  |  | 300 to 500
CC(C)C[C@@H]1NC(=O)[C@H](CCCNC(=N)N)NC(=O)[C@H](C(C)C)NC(=O)[C@H](Cc2c[nH]cn2)NC(=O)[C@H](Cc2c[nH]cn2)NC(=O)CNC(=O)[C@H](CCCCN)NC(=O)[C@H](CC(C)C)NC(=O)[C@H](CC(N)=O)NC(=O)[C@H]([C@@H](C)O)NC(=O)[C@H](CO)NC(=O)[C@H](CC(N)=O)NC(=O)[C@@H]2CCCN2C(=O)[C@H](CO)NC(=O)[C@@H]2CCCN2C(=O)[C@H](C(C)C)NC(=O)[C@H](CCCNC(=N)N)NC(=O)[C@H](Cc2c[nH]cn2)NC(=O)[C@@H]2CSSC[C@H](NC1=O)C(=O)N[C@@H](CCCCN)C(=O)N1CCC[C@H]1C(=O)N[C@H](C(=O)N[C@@H](CCCCN)C(=O)N[C@@H](CC(C)C)C(=O)N[C@@H](CCC(=O)O)C(=O)N1CCC[C@H]1C(=O)N[C@@H](CCC(=O)O)C(=O)N1CCC[C@H]1C(=O)N[C@@H](CCCNC(=N)N)C(=O)N[C@@H](CC(C)C)C(=O)N[C@@H](Cc1c[nH]c3ccccc13)C(=O)N[C@H](C(=O)N[C@H](C(=O)N1CCC[C@H]1C(=O)NCC(=O)N[C@@H](C)C(=O)N[C@@H](CC(C)C)C(=O)N1CCC[C@H]1C(=O)N[C@@H](CCC(N)=O)C(=O)N[C@H](C(=O)O)C(C)C)C(C)C)C(C)C)CSSC[C@H](NC(=O)[C@H](CC(C)C)NC(=O)[C@H](CCCNC(=N)N)NC(=O)[C@@H](NC(=O)[C@H](CCCNC(=N)N)NC(=O)[C@H](CCCNC(=N)N)NC(=O)CNC(=O)[C@H](CO)NC(=O)[C@H](Cc1c[nH]c3ccccc13)NC(=O)[C@H](C)NC(=O)[C@H](CCCCN)NC(=O)[C@H](C)NC(=O)[C@@H]1CCCN1C(=O)[C@H](CCCNC(=N)N)NC(=O)[C@H](CCCNC(=N)N)NC(=O)[C@@H](N)CCCCN)[C@@H](C)O)C(=O)N2 | G-protein coupled receptor 15, with Gi3 (Homo sapiens, UniProt P49685) | Gi3 activation, agonist, BRET | HEK293A transfected GPR15 |  | 20.4
O=C(Nc1c(-c2cccs2)nc2ccccn12)c1ccc(Cl)cc1 | Gamma-aminobutyric acid receptor subunit alpha-1/beta-2/delta (Homo sapiens, UniProt O14764+P14867+P47870) | positive allosteric modulator, FLIPR membrane potential | HEK293 Flp-In | with: GABA EC20 | 2970
O=C1/C(=C\c2cccc(F)c2)Oc2cc(O)ccc21 | ESR2 (Homo sapiens, UniProt Q92731) | coactivator recruitment, agonist |  |  | 910
CCCC[C@H](NC(=O)[C@H](CO)NC(=O)[C@H](Cc1ccc(O)cc1)NC(=O)[C@H](CO)NC(C)=O)C(=O)N[C@@H](CCC(=O)O)C(=O)N[C@@H](Cc1c[nH]cn1)C(=O)N[C@H](Cc1ccccc1)C(=O)N[C@@H](CCCNC(=N)N)C(=O)N[C@@H](Cc1c[nH]c2ccccc12)C(=O)NCC(=O)N[C@@H](CCCCN)C(=O)N1CCC[C@H]1C(=O)N[C@H](C(=O)NCC(=O)N[C@@H](CCCCN)C(=O)N[C@@H](CCCCN)C(=O)N[C@@H](CCCNC(=N)N)C(N)=O)C(C)C | MC1R (Homo sapiens, UniProt Q01726, M128L) | cAMP, agonist |  |  | 0.71

Excerpt of the above:
SMILES | target | assay | test system | conditions | EC50 [nM]
CCNC(=O)[C@H]1O[C@@H](n2cnc3c(NCCCCNS(=O)(=O)c4cccc5c(N(C)C)cccc45)ncnc32)[C@H](O)[C@@H]1O | ADORA1 | reporter gene, agonist |  |  | > 10000
